Measurements pooled from the literature.
A part holds a random share of what one study measured.
Chain of UniProt Q13237 (whole entry, looked up): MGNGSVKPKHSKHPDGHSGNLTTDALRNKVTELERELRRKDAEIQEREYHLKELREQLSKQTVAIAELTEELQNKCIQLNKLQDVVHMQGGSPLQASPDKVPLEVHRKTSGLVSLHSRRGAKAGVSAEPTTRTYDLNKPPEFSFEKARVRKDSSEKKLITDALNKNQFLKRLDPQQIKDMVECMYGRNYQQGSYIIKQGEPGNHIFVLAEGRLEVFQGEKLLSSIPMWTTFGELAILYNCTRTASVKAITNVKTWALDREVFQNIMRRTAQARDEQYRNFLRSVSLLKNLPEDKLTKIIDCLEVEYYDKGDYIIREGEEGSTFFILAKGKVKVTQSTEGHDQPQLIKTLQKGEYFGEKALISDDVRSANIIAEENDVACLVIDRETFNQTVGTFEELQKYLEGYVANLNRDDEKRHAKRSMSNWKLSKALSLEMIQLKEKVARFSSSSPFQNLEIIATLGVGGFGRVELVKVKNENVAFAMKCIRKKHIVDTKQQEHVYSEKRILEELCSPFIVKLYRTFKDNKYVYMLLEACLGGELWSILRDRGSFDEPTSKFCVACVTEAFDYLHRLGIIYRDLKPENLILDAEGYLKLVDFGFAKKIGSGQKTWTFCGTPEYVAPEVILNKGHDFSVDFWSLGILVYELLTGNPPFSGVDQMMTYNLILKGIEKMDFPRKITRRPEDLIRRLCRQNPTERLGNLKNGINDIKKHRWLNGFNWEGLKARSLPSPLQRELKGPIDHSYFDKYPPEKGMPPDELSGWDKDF
Chain of UniProt P33981 (whole entry, looked up): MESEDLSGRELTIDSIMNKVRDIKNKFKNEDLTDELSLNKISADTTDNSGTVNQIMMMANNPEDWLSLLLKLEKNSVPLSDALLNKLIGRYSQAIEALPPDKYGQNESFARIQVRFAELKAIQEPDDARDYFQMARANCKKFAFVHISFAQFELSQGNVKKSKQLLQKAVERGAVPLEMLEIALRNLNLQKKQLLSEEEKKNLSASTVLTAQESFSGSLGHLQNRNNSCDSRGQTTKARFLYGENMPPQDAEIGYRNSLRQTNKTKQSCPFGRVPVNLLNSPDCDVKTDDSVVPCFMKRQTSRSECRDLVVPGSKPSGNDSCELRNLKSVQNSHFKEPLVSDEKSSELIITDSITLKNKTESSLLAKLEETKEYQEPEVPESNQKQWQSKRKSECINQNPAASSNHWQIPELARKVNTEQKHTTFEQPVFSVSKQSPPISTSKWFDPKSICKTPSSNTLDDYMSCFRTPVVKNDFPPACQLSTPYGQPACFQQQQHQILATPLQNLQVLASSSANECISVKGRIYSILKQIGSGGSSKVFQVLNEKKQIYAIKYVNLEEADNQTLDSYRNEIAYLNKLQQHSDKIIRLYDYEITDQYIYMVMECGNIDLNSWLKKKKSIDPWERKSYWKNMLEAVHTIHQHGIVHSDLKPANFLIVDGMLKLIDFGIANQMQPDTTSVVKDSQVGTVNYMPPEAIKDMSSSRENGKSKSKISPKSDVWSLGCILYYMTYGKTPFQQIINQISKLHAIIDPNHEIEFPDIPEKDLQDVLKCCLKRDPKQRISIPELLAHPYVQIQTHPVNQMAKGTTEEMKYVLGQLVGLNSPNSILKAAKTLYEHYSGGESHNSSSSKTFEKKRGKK
Chain of UniProt Q15759 (whole entry, looked up): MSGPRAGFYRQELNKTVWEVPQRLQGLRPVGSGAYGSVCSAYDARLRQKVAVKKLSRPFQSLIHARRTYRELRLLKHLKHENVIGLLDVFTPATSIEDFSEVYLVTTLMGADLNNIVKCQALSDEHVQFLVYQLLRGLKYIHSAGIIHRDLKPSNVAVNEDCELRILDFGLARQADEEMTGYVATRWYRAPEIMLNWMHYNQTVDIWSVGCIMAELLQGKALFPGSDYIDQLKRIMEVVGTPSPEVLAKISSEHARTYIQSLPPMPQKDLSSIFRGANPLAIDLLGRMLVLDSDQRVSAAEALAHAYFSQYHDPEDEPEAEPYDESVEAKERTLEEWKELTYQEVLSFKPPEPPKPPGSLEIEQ
Chain of UniProt P08581 (whole entry, looked up): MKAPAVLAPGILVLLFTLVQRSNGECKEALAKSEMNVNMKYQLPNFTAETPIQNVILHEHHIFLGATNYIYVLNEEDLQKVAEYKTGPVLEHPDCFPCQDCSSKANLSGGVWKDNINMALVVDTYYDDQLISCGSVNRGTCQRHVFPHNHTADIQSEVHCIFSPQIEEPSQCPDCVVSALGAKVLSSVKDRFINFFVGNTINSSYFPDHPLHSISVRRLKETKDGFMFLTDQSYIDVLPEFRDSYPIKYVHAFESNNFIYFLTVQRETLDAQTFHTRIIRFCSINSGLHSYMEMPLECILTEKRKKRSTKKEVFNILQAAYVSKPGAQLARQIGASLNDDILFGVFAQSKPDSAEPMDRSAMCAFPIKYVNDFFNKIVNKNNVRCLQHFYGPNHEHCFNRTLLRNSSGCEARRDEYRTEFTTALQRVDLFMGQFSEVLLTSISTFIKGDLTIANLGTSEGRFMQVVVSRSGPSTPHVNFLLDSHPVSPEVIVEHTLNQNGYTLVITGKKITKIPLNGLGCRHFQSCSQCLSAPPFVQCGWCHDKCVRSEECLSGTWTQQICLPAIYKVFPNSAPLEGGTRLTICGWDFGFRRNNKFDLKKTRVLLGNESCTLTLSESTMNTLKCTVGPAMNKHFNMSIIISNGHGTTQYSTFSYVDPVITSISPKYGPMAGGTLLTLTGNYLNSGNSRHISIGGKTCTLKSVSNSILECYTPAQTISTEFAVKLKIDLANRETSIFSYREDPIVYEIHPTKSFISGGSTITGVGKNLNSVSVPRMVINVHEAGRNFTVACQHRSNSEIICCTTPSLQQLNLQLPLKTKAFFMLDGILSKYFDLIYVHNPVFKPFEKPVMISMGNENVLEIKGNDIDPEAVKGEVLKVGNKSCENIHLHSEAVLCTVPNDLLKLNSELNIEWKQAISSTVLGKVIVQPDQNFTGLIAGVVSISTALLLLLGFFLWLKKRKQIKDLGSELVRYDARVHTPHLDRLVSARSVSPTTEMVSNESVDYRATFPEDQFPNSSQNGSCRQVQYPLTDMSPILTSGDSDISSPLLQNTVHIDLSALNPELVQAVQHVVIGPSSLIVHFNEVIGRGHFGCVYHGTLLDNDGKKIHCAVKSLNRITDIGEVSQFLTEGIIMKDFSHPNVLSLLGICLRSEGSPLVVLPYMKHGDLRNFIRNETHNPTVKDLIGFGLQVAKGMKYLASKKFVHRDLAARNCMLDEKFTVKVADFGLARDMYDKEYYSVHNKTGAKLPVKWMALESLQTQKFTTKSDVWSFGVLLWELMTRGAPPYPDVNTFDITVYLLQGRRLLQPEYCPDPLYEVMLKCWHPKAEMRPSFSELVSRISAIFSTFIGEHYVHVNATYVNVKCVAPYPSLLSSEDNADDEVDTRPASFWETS
Chain of UniProt P51956 (whole entry, looked up): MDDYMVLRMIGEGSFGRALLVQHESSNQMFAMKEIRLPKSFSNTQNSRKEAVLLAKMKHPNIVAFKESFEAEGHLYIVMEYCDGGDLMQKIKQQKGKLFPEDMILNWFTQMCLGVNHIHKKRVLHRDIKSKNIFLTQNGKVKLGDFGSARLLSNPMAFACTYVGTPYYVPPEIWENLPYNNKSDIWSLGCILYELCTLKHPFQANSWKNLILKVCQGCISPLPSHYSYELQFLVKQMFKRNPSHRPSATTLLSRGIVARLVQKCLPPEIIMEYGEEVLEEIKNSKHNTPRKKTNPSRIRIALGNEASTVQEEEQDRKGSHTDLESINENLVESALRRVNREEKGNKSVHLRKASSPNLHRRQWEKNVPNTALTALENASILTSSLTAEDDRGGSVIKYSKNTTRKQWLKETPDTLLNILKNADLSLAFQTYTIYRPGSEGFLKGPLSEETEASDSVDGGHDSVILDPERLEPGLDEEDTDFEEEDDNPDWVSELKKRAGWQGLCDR

Block 1 — Structure (SMILES): Cn1cnc2cc3c(Nc4cccc(Br)c4)ncnc3cc21; observed: enzyme activity; mode: inhibitor; concentration: 0.5 µM; relative to: control
The remaining activity was 96.6% (MARK2 (Homo sapiens, UniProt Q7KZI7)).
It gave 98.5% for remaining activity (PAK3 (Homo sapiens, UniProt O75914)).
CDC42BPB (Homo sapiens, UniProt Q9Y5S2) — remaining activity: 104%.
The remaining activity was 93.6% (MAPK14 (Homo sapiens, UniProt Q16539)).
The remaining activity was 63.6% (PRKG2 (Homo sapiens, UniProt Q13237)).
It gave 85.9% for remaining activity (MAPK11 (Homo sapiens, UniProt Q15759)).
The remaining activity was 105% (MARK4 (Homo sapiens, UniProt Q96L34)).
PNCK (Homo sapiens, UniProt Q6P2M8) — remaining activity: 101%.
For MINK1 (Homo sapiens, UniProt Q8N4C8): remaining activity read 82.1%.
For PLK3 (Homo sapiens, UniProt Q9H4B4): remaining activity read 99.8%.
It gave 100% for remaining activity (CLK3 (Homo sapiens, UniProt P49761)).
The remaining activity was 101% (MET (Homo sapiens, UniProt P08581)).
The remaining activity was 88.5% (CLK4 (Homo sapiens, UniProt Q9HAZ1)).
The remaining activity was 102% (DDR2 (Homo sapiens, UniProt Q16832)).

Block 2 — observed: enzyme activity; mode: inhibitor; concentration: 10 µM
Target: Calcium/calmodulin-dependent protein kinase type II subunit alpha (CAMK2A, Homo sapiens, UniProt Q9UQM7)
Chain of UniProt Q9UQM7 (whole entry, looked up): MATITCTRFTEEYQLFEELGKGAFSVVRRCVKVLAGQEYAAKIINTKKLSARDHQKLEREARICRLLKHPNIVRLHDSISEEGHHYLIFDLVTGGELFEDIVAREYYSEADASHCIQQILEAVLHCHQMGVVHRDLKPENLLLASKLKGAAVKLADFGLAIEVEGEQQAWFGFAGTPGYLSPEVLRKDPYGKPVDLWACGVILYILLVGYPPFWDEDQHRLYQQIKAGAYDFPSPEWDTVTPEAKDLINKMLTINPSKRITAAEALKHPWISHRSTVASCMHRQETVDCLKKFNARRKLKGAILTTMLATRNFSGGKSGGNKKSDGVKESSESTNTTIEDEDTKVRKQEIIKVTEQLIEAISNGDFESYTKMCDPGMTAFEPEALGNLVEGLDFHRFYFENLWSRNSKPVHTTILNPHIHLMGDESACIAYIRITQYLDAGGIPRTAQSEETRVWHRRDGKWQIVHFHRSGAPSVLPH
The inhibition of `CO[C@H]1/C=C/O[C@@]2(C)Oc3c(C)c(O)c4c(O)c(cc(O)c4c3C2=O)NC(=O)/C(C)=C\C=C\[C@H](C)[C@H](O)[C@@H](C)[C@@H](O)[C@@H](C)[C@H](OC(C)=O)[C@@H]1C` is reported as -11%.
With `COc1cc2c(cc1OC)C1=Cc3ccc(OC)c(OC)c3CN1CC2` the inhibition was -20%.
For `COc1ccc(Cl)cc1C(=O)NCCc1ccc(S(=O)(=O)NC(=O)NC2CCCCC2)cc1`, the inhibition was -2%.
For `COc1ccc(CO)cc1OC`, the inhibition was 19%.
For `COC(=O)c1ccccc1C(=O)O`, the inhibition was 8%.
The inhibition of `COc1cc(CCCO)cc(OC)c1O` is reported as 0%.
`Cc1cnc(C(=O)NCCc2ccc(S(=O)(=O)NC(=O)NC3CCCCC3)cc2)cn1` gave an inhibition of 4%.
`OCc1cccc2ccccc12` gave an inhibition of 47%.
With `CCCCCCc1ccc(O)cc1O` the inhibition was -10%.
The inhibition of `COc1cc(/C=C/C(=O)CC(=O)/C=C/c2ccc(O)c(OC)c2)ccc1O` is reported as 25%.
With `CCC(=O)O[C@]1(C(=O)CCl)[C@@H](C)C[C@H]2[C@@H]3CCC4=CC(=O)C=C[C@]4(C)[C@@]3(F)[C@@H](O)C[C@@]21C` the inhibition was 3%.
With `Cc1cc2nc3c(=O)[nH]c(=O)nc-3n(C[C@H](O)[C@H](O)[C@H](O)CO)c2cc1C` the inhibition was 1%.

Block 3 — concentration: 1 µM
Structure (SMILES): COc1ccc2[nH]c3c4[nH]c5ccc(OC)cc5c4c4c(c3c2c1)C(=O)NC4=O
NIM1K (Homo sapiens, UniProt Q8IY84); competitive binding panel, item: NIM1; relative to: vehicle — remaining binding: 100%.
The remaining binding was 64% (MAP3K15 (Homo sapiens, UniProt Q6ZN16); competitive binding panel; relative to: vehicle).
ABL2 (Homo sapiens, UniProt P42684); competitive binding panel; relative to: vehicle — remaining binding: 82%.
For JAK3 (Homo sapiens, UniProt P52333); competitive binding panel; JH1 catalytic domain; relative to: vehicle: remaining binding read 47%.
It gave 86% for remaining binding (MAPK13 (Homo sapiens, UniProt O15264); competitive binding; p38-delta).
It gave 82% for remaining binding (MAK (Homo sapiens, UniProt P20794); competitive binding panel; relative to: vehicle).
For LRRK2 (Homo sapiens, UniProt Q5S007, G2019S); competitive binding panel; relative to: vehicle: remaining binding read 2.6%.

Block 4 — concentration: 1 µM
Structure (SMILES): O=C1CCc2cc(Nc3cc(OC4CCOCC4)c([N+](=O)[O-])cc3Cl)ccc2N1
For DYRK1B (Homo sapiens, UniProt Q9Y463); cell-free assay, competition with immobilised ligand: remaining binding read 74%.
For LIM domain kinase 2 (LIMK2, Homo sapiens, UniProt P53671); cell-free assay, competition with immobilised ligand: remaining binding read 100%.
NEK3 (Homo sapiens, UniProt P51956); cell-free assay, competition with immobilised ligand — remaining binding: 100%.
The remaining binding was 100% (CDK11A (Homo sapiens, UniProt Q9UQ88); cell-free assay, competition with immobilised ligand).
For CDK19 (Homo sapiens, UniProt Q9BWU1); competition binding: remaining binding read 72%.
It gave 87% for remaining binding (TTK (Homo sapiens, UniProt P33981); cell-free assay, competition with immobilised ligand).
CDK13 (Homo sapiens, UniProt Q14004); cell-free assay, competition with immobilised ligand — remaining binding: 100%.
MAP3K1 (Homo sapiens, UniProt Q13233); cell-free assay, competition with immobilised ligand — remaining binding: 65%.
For MAP3K4 (Homo sapiens, UniProt Q9Y6R4); cell-free assay, competition with immobilised ligand: remaining binding read 85%.
STK11 (Homo sapiens, UniProt Q15831); cell-free assay, competition with immobilised ligand — remaining binding: 100%.
The remaining binding was 91% (Ribosomal protein S6 kinase alpha-6, C-terminal kinase domain (RPS6KA6, Homo sapiens, UniProt Q9UK32); cell-free assay, competition with immobilised ligand).
For HASPIN (Homo sapiens, UniProt Q8TF76); cell-free assay, competition with immobilised ligand: remaining binding read 100%.

A few entries again (block 4):
STK11 (Homo sapiens, UniProt Q15831); cell-free assay, competition with immobilised ligand — remaining binding: 100%.
The remaining binding was 91% (Ribosomal protein S6 kinase alpha-6, C-terminal kinase domain (RPS6KA6, Homo sapiens, UniProt Q9UK32); cell-free assay, competition with immobilised ligand).
